Measurements gathered from unrelated publications.
Parts stem from different laboratories: compare values within a part only.

Study 1
Target: Centromere-binding protein 1, full length, His-tagged (CBF1, Saccharomyces cerevisiae, UniProt P17106, residues 1-351)
UniProt P17106, sequence (whole entry, looked up): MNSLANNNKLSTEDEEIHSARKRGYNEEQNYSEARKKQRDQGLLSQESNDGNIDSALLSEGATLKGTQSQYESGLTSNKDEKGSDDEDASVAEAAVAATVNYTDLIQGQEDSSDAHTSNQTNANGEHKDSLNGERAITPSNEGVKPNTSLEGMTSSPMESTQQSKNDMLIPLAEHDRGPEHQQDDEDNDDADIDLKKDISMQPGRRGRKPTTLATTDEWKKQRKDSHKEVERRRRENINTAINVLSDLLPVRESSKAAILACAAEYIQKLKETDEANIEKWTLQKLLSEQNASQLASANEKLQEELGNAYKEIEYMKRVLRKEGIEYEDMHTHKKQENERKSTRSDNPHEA
Method: competition protein-binding microarray
Molecule type: double-stranded DNA, one strand shown
Matrix: in vitro
Concentration: 2 µM
Setting: whole 60-bp probe, lowest competitor level
Added: Pho4 competitor, 0.05 µM
Direction: higher = stronger binding
Measurement: fluorescence intensity
CTTTCCCGATCTTGCCCAGTGGGTGTAGCACATTTGGTCTTGATTCGCTTGACGCTGCTG: 61.6 a.u.
CATACCCAACCTTTTCACGTGTCCTAAGATATTTGTGTCTTGATTCGCTTGACGCTGCTG: 1300 a.u.
CTTTCCCGATCTTGAGCAGTGGGTGTAGCACATTTGGTCTTGATTCGCTTGACGCTGCTG: 68.7 a.u.

Study 2
Target: RNA binding protein fox-1 homolog 2, RRM domain, GST-SBP tag (RBFOX2, Homo sapiens, UniProt O43251-10, residues 100-194)
Method: RNA Bind-n-Seq
Molecule type: RNA
Matrix: in vitro
Concentration: 365 nM
Setting: natural RNA segment, single round, ends assumed
Relative to: no-protein control
Direction: higher = stronger binding
Measurement: RBNS enrichment (R)
GGGAGUUCUACAGUCCGACGAUCAGGAGCUCUAAUUAUGCUUUAAAAAUCUGUUGUGGAGAUUGCUUUAAAUGCUCCCUGCCUGGUGUGGGGAUGGGGUCCCCCUCUUUGUGAGGGCUGGAGCAUGGCACGGCUGGAAUUCUCGGGUGCCAA: 1.29
GGGAGUUCUACAGUCCGACGAUCCGCCACCUCUACCUGUUCCCAGGACACCCUCCCACAUGUGUCACCUCCCCAUCAUCCACGCCAAGUGGAAGCCACUGGACCACAGGAGGUGUGAUAGAGCCUUUGAUCUUUGGAAUUCUCGGGUGCCAA: 0.67
GGGAGUUCUACAGUCCGACGAUCGUGCACAUUUGUGAUCAGCAUUGUGACUUGGAGAUAAUAAAAUUUAGACUGUAGACUUGACUCUGUGGCCAGUUAUUGUGUGUCUUGAUUUGGGAGGGAAGGAAGACUAAUGGAAUUCUCGGGUGCCAA: 1.61
GGGAGUUCUACAGUCCGACGAUCGUCUAACCCUUUCUGUGUGGCAGAAAAAUAUGUUUUCCAGGUAGUUUUUACUACUACAGAGAGUCUGUAAAUAAGUGCUUUAAAAAAAUAACAAACCAAUAAGAUAUUUGUGGAAUUCUCGGGUGCCAA: 0.58

Study 3
Target: Histone acetyltransferase KAT6A, winged helix 1, GST fusion (KAT6A, Homo sapiens, UniProt Q92794, residues 1-85)
Method: protein binding microarray
Molecule type: double-stranded DNA, one strand shown
Matrix: in vitro
Concentration: not given
Setting: 8-mer, flanks averaged, mean of 2 arrays, mostly near background
Relative to: not given
Direction: higher = stronger binding
Measurement: E-score
Construct (chain): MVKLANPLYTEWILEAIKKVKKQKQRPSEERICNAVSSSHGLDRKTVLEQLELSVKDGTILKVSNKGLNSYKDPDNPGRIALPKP
AAACAGTC: -0.00385
TCAGTGGA: 0.0416
AGGATGTC: -0.136

Mixed results
PhoQ, residues 284 288 289 292 302 303 ALASRC  fold induction (PhoP, residues 12 14 15 18 19 SGWQI (Escherichia coli, UniProt P23836); Sort-seq, measured: YFP reporter; E. coli; PhoQ-PhoP variant library, added: 10 µM Mg2+; relative to: high Mg2+ state, higher = stronger signaling): 1.08

A few entries again (study 1):
CATACCCAACCTTTTCACGTGTCCTAAGATATTTGTGTCTTGATTCGCTTGACGCTGCTG: 1300 a.u.
